# Experimental data of several laboratories.
# Each line is one published result; not all experiments were run side by side. Numbers after ± are the reported error.
# UniProt P68402, sequence (whole entry, looked up): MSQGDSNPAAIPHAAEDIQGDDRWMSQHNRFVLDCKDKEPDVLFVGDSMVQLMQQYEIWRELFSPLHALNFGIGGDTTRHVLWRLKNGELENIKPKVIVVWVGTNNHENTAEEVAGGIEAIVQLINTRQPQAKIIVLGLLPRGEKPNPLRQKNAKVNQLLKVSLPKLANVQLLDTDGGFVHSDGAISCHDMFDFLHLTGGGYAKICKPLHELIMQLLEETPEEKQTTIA
SMILES,target or system,assay,test system,conditions,how to read,measurement,value
CC[C@H](C)[C@@H]1NC(=O)[C@@H]2CCCN2C(=O)[C@H](CC(C)C)NC(=O)[C@H](CC(C)C)NC(=O)CNC(=O)[C@@H](NC(=O)[C@@H](NC(=O)[C@H](CC(=O)O)NC(=O)CNC(=O)[C@@H](NC(=O)[C@H](C)NC(=O)CNC(=O)[C@H](CCCCN)NC(=O)[C@H](CC(C)C)NC(=O)[C@H](CC(C)C)NC(=O)[C@H](CCCCN)NC(=O)CNC(=O)[C@@H](NC(=O)[C@@H](N)CC(C)C)C(C)C)C(C)C)C(C)C)CSSC[C@@H](C(=O)O)NC1=O,,"RNA-seq, refers to: Cfap43","mouse, traumatic brain injury model, frontal cortex and hippocampus",dose not given,baseline: TBI alone,log2 fold change,-2.22
CC[C@H](C)[C@@H]1NC(=O)[C@@H]2CSSC[C@H](NC(=O)[C@H](CCCNC(=N)N)NC(=O)[C@@H]3CSSC[C@H](NC1=O)C(=O)N[C@@H]([C@@H](C)O)C(=O)N[C@@H](CCCNC(=N)N)C(=O)NCC(=O)N[C@@H](Cc1ccccc1)C(=O)N3)C(=O)N[C@@H](CC(C)C)C(=O)N[C@H]1CSSC[C@H](NC(=O)[C@H](C(C)C)NC(=O)CNC(=O)[C@H](CCCNC(=N)N)NC(=O)[C@H](CCCNC(=N)N)NC1=O)C(=O)N[C@@H](CCCNC(=N)N)C(=O)N2,,,"Sprague-Dawley rats, female, adrenal gland",20 mg/kg,direction not given,adrenal necrosis score,3 to 5
C[C@@H](O)[C@@H](CO)NC(=O)[C@@H](CCCNC(=N)N)NC(=O)[C@@H]1CCCN1C(=O)[C@@H]1CSSC[C@H](NC(=O)[C@H](Cc2ccccc2)NC(=O)CN2CCN(CC(=O)O)CCN(CC(=O)O)CCN(CC(=O)O)CC2)C(=O)N[C@@H](Cc2ccc(O)cc2)C(=O)N[C@@H](Cc2ccccc2)C(=O)N[C@@H](CCC(N)=O)C(=O)N[C@@H](CC(N)=O)C(=O)N1 [gallium-68 labelled],,,"healthy Wistar rat, stomach","intravenous, 8 MBq, 120 min, individual animals",,tissue uptake,0.03 %ID/g
CC(C)(O)c1cc(Nc2cc(Oc3cn(C4CC4)nc3C3CCOCC3)ccn2)ccn1,,,"patients with advanced cancer, Japanese cohort","oral, dose not given, treatment-related adverse events",,"ALT increased, any grade",22%
C[C@]1(O)C[C@@](N)(c2ccc(-c3nc4n(c3-c3ccccc3)COc3ccncc3-4)cc2)C1,,,"human, advanced or metastatic solid tumours","20 mg once daily, phase I dose escalation",,patients with decreased appetite,33.3%
O=C(c1ccc(Cl)cc1)N1CCN2C(=O)N(OC(=O)N3CCOc4ccccc43)C(=O)C2C1 (stereo not drawn),"Platelet-activating factor acetylhydrolase IB subunit alpha2 (Homo sapiens, UniProt P68402)",MS-based ABPP,SW-620 conditioned medium,"10 µM, 1 h, 37 °C","baseline: compound over DMSO, lower = more inhibition",median protein ratio,0.92
CC(C)[C@@H]1NC(=O)CNC(=O)[C@H](CC(N)=O)NC(=O)[C@H](CCCNC(=N)N)NC(=O)[C@H](Cc2ccc(O)cc2)NC(=O)[C@H](C(C)C)NC(=O)[C@@H](NC(=O)[C@@H](NC(=O)[C@H](CC(N)=O)NC(=O)[C@H](Cc2c[nH]c3ccccc23)NC(=O)[C@H](C)NC(=O)[C@H](Cc2ccccc2)NC(=O)CN)C(C)C)CSSC[C@@H](C(=O)N[C@@H](Cc2cnc[nH]2)C(=O)N[C@@H](CCCNC(=N)N)C(=O)N[C@@H](CCCNC(=N)N)C(=O)N[C@@H](C)C(=O)N[C@@H](CC(N)=O)C(N)=O)NC(=O)[C@H](C(C)C)NC(=O)[C@H](CCCNC(=N)N)NC1=O,,,ICR mouse,"ip, 5 mg/kg",direction not given,spasm score,0
CC[C@H](C)[C@H](NC(=O)[C@H](Cc1ccccc1)NC(=O)[C@H](CCC(=O)O)NC(=O)[C@H](CCCNC(=N)N)NC(=O)[C@H](C)NC(=O)[C@H](C)NC(=O)[C@H](CCC(N)=O)NC(=O)[C@H](CCC(=O)O)NC(=O)[C@H](CCC(=O)O)NC(=O)[C@H](CC(C)C)NC(=O)[C@H](Cc1ccc(O)cc1)NC(=O)[C@H](CO)NC(=O)[C@H](CO)NC(=O)[C@@H](NC(=O)[C@H](CC(=O)O)NC(=O)[C@H](CO)NC(=O)[C@@H](NC(=O)[C@H](Cc1ccccc1)NC(=O)[C@@H](NC(=O)CNC(=O)[C@H](CCC(=O)O)NC(=O)[C@H](C)NC(=O)CCc1c[nH]cn1)[C@@H](C)O)[C@@H](C)O)C(C)C)C(=O)N[C@@H](C)C(=O)N[C@@H](Cc1c[nH]c2ccccc12)C(=O)N[C@@H](CC(C)C)C(=O)N[C@H](C(=O)N[C@@H](CCCNC(=N)N)C(=O)NCC(=O)N[C@@H](CCCNC(=N)N)C(=O)N[C@@H](CCCCNC(=O)COCCOCCNC(=O)COCCOCCNC(=O)CC[C@H](NC(=O)CCCCCCCCCCCCCCCCC(=O)O)C(=O)O)C(=O)NCC(=O)NCC(=O)N[C@@H](CO)C(=O)N[C@@H](CCCCNc1c(NCCCCCN(O)C(=O)CCC(=O)NCCCCCN(O)C(=O)CCC(=O)NCCCCCN(O)C(C)=O)c(=O)c1=O)C(=O)O)C(C)C [zirconium-89 labelled],,,"rat, pancreas","iv, 3 nmol/kg, 168 h, ex vivo",,tissue uptake,0.11 %ID/g
O=C(Nc1ccccc1)C1CCN(C(=O)Oc2cccnc2)CC1,,adverse event reporting,healthy women,"oral, 20 mg, 7 days",,subjects with Rhinitis adverse event,7.1%
COc1cc2c(Oc3ccc4[nH]c(C)cc4c3F)ccnc2cc1OCC1(N)CC1,,,paediatric recurrent refractory sarcoma,12 mg,,grade 1 or 2 Neutropenia,27.3%
CO[C@H]1C[C@@H]2CC[C@@H](C)[C@@](O)(O2)C(=O)C(=O)N2CCCC[C@H]2C(=O)O[C@H]([C@H](C)C[C@@H]2CC[C@@H](OC(=O)NCCOCCOCCOCCOCCOCCOCCOCCOCCC(=O)N3CCc4cc(Cn5nc(-c6ccc7oc(N)nc7c6)c6c(N)ncnc65)ccc4C3)[C@H](OC)C2)C[C@@H](O)[C@H](C)/C=C(\C)[C@@H](O)[C@@H](OC)C(=O)[C@H](C)C[C@H](C)/C=C/C=C/C=C/1C,,phase 1 dose escalation,advanced solid tumour patients,"intravenous, 12 mg weekly, any grade",,AEs causing dose modification,58.3%
CC[C@H](C)[C@H](NC(=O)[C@H](C)NC(=O)[C@H](CCCCN)NC(=O)[C@H](CC(C)C)NC(=O)[C@H](C)NC(=O)[C@@H](NC(=O)[C@H](Cc1c[nH]cn1)NC(=O)[C@H](CC(C)C)NC(=O)[C@@H](NC(=O)[C@@H](NC(=O)[C@H](CCCCN)NC(=O)[C@H](C)NC(=O)[C@H](C)NC(=O)[C@H](CO)NC(=O)[C@H](CCCCN)NC(=O)[C@H](Cc1ccccc1)NC(=O)[C@@H](NC(=O)[C@H](CCCCN)NC(=O)[C@H](CC(C)C)NC(=O)[C@H](Cc1ccccc1)NC(=O)[C@H](CO)NC(=O)[C@H](CCCCN)NC(=O)[C@H](Cc1c[nH]c2ccccc12)NC(=O)[C@H](CCCCN)NC(C)=O)[C@@H](C)O)[C@@H](C)O)C(C)C)[C@@H](C)O)C(=O)N[C@@H](CO)C(=O)N[C@@H](CO)C(N)=O,Enterococcus faecalis,,ATCC 29212,,,MIC50,32 µg/mL
CC(C)C[C@@H]1NC(=O)[C@H](CC(C)C)NC(=O)[C@H](Cc2c[nH]c3ccccc23)NC(=O)[C@H](CO)NC(=O)[C@H](Cc2c[nH]c3ccccc23)NC(=O)[C@@H]2CCCN2C(=O)[C@H](CC(C)C)NC(=O)[C@H](Cc2c[nH]cn2)NC(=O)[C@@H]2CCCN2C(=O)[C@H](CC(N)=O)NC(=O)[C@H](C)NC(=O)[C@H](Cc2ccc(O)cc2)NC(=O)[C@H](CS)NC(=O)[C@H](CCCCNC(=O)CN2CCN(CC(=O)O)CCN(CC(=O)O)CCN(CC(=O)O)CC2)NC1=O [lutetium-177 labelled],,,"BALB/c mice, 4T1 tumour","iv, 3.7 MBq, 1 h, unblocked",,tumour uptake,6.97 ± 1.04 %ID
Cn1ncc(-c2nc(N[C@H]3CC[C@H](N)CC3)ncc2Cl)c1CC1CC1,,refers to: anemia grade 3 or higher,human patients phase I,dose not given,,adverse event incidence,33%
C[C@]1(CO)Cc2ncn(-c3ccc(C#N)c(Cl)c3)c2C(=O)O1,,,"human, Chinese",80 mg single dose,,subjects with drug-related acne,0%
COc1cc(CCC[P+](c2ccccc2)(c2ccccc2)c2ccccc2)c(OC)c2c1OCO2.[I-],RXF 393,SRB,,,,LC50,-4.41 log M
C[C@@H](NC(=O)N1C(=O)[C@H](Cc2ccnc(N)c2)[C@H]1C(=O)O)C1CCCCC1,,,healthy adult Chinese volunteers,"continuous intravenous infusion, 0.3 mg/kg/h, 5-day infusion, CTCAE 5.0 grading",,abnormal liver function leading to discontinuation,0%
CNC(=O)c1cc(Oc2ccc(NC(=O)Nc3cc(C(C)(C)C)nn3-c3ccc4ncccc4c3)c(F)c2)ccn1,,"pericardial effusion, NCI CTC v3.0",human patients,"oral, 100 mg twice daily, tablet, dose at onset",,related SAE,6%
Cc1cc(C)c(CNC(=O)c2cc(Cl)c3c(c2C)O[C@@](C)([C@H]2CC[C@H](N(C)C)CC2)O3)c(=O)[nH]1,,,relapsed/refractory NHL patients,"dose not given, trial, safety set, treatment-related TEAE grade 5",,incidence of neutrophil count decreased,0%
CCN1CCN(Cc2ccc(Nc3ncc(F)c(-c4cc(F)c5nc6n(c5c4)[C@H](C)CCC6)n3)nc2)CC1,,Phase Ia dose escalation,patients with advanced solid tumours,"dose not given, monotherapy, any grade",,blood creatinine increased incidence,75%
CCCCCOc1ccc(-c2ccc(-c3ccc(C(=O)N[C@H]4C[C@@H](O)[C@@H](OCC[N+](C)(C)C)NC(=O)[C@@H]5[C@@H](O)[C@@H](C)CN5C(=O)[C@H]([C@@H](C)O)NC(=O)[C@H]([C@H](O)[C@@H](O)c5ccc(O)cc5)NC(=O)[C@@H]5C[C@@H](O)CN5C(=O)[C@H]([C@@H](C)O)NC4=O)cc3)cc2)cc1,,,"adult patients not in ICU, plasma","intravenous, 400 mg loading, after first dose, mean",,AUC(0-168 h),811 µg·h/mL

# For quick reference, copied from above:
SMILES,target or system,assay,test system,conditions,how to read,measurement,value
C[C@@H](O)[C@@H](CO)NC(=O)[C@@H](CCCNC(=N)N)NC(=O)[C@@H]1CCCN1C(=O)[C@@H]1CSSC[C@H](NC(=O)[C@H](Cc2ccccc2)NC(=O)CN2CCN(CC(=O)O)CCN(CC(=O)O)CCN(CC(=O)O)CC2)C(=O)N[C@@H](Cc2ccc(O)cc2)C(=O)N[C@@H](Cc2ccccc2)C(=O)N[C@@H](CCC(N)=O)C(=O)N[C@@H](CC(N)=O)C(=O)N1 [gallium-68 labelled],,,"healthy Wistar rat, stomach","intravenous, 8 MBq, 120 min, individual animals",,tissue uptake,0.03 %ID/g
CC(C)(O)c1cc(Nc2cc(Oc3cn(C4CC4)nc3C3CCOCC3)ccn2)ccn1,,,"patients with advanced cancer, Japanese cohort","oral, dose not given, treatment-related adverse events",,"ALT increased, any grade",22%
C[C@]1(CO)Cc2ncn(-c3ccc(C#N)c(Cl)c3)c2C(=O)O1,,,"human, Chinese",80 mg single dose,,subjects with drug-related acne,0%
CC[C@H](C)[C@H](NC(=O)[C@H](C)NC(=O)[C@H](CCCCN)NC(=O)[C@H](CC(C)C)NC(=O)[C@H](C)NC(=O)[C@@H](NC(=O)[C@H](Cc1c[nH]cn1)NC(=O)[C@H](CC(C)C)NC(=O)[C@@H](NC(=O)[C@@H](NC(=O)[C@H](CCCCN)NC(=O)[C@H](C)NC(=O)[C@H](C)NC(=O)[C@H](CO)NC(=O)[C@H](CCCCN)NC(=O)[C@H](Cc1ccccc1)NC(=O)[C@@H](NC(=O)[C@H](CCCCN)NC(=O)[C@H](CC(C)C)NC(=O)[C@H](Cc1ccccc1)NC(=O)[C@H](CO)NC(=O)[C@H](CCCCN)NC(=O)[C@H](Cc1c[nH]c2ccccc12)NC(=O)[C@H](CCCCN)NC(C)=O)[C@@H](C)O)[C@@H](C)O)C(C)C)[C@@H](C)O)C(=O)N[C@@H](CO)C(=O)N[C@@H](CO)C(N)=O,Enterococcus faecalis,,ATCC 29212,,,MIC50,32 µg/mL
